Measured values collected from several papers.
Lines come from different studies, so protocols differ. ± marks the error that the study gave. No end group written: not given here. *: point of attachment.
B1: enzyme (Bacillus pumilus, UniProt A8FFI9); chain EARSIAWSVDEFFKNREGTFVIQEVKEKSPWVYNKKRAKERFAPQSTFKVANALIGLQTGAVRDEYDIKYWDGVKREIDNWNRDHTLGSGMRDSVVWYYQAMARDIGEERMNHWVKAIHYGNKDISGGIDQFWLSSTLRISPIEQVRFLKQLYEETLPFDLKNMRTVKRMMVQEEEKHATLYGKTGSGSDIGWYVGFIKHEHKTYILATNIKGTGIEAKDITYRILKKYHLMEASV
B2: UGT1A9 (Homo sapiens, UniProt O60656); chain GKLLVVPMDGSHWFTMRSVVEKLILRGHEVVVVMPEVSWQLGRSLNCTVKTYSTSYTLEDLDREFKAFAHAQWKAQVRSIYSLLMGSYNDIFDLFFSNCRSLFKDKKLVEYLKESSFDAVFLDPFDNCGLIVAKYFSLPSVVFARGILCHYLEEGAQCPAPLSYVPRILLGFSDAMTFKERVRNHIMHLEEHLLCHRFFKNALEIASEILQTPVTEYDLYSHTSIWLLRTDFVLDYPKPVMPNMIFIGGINCHQGKPLPMEFEAYINASGEHGIVVFSLGSMVSEIPEKKAMAIADALGKIPQTVLWRYTGTRPSNLANNTILVKWLPQNDLLGHPMTRAFITHAGSHGVYESICNGVPMVMMPLFGDQMDNAKRMETKGAGVTLNVLEMTSEDLENALKAVINDKSYKENIMRLSSLHKDRPVEPLDLAVFWVEFVMRHKGAPHLRPAAHDLTWYQYHSLDVIGFLLAVVLTVAFITFKCCAYGYRKCLGKKGRVKKAHKSKTH
B3: erenumab; V domains shown; sequence looked up; VH QVQLVESGGGVVQPGRSLRLSCAASGFTFSSFGMHWVRQAPGKGLEWVAVISFDGSIKYSVDSVKGRFTISRDNSKNTLFLQMNSLRAEDTAVYYCARDRLNYYDSSGYYHYKYYGMAVWGQGTTVTVSS; VL QSVLTQPPSVSAAPGQKVTISCSGSSSNIGNNYVSWYQQLPGTAPKLLIYDNNKRPSGIPDRFSGSKSGTSTTLGITGLQTGDEADYYCGTWDSRLSAVVFGGGTKLTVL
UniProt P08473, sequence (whole entry, looked up): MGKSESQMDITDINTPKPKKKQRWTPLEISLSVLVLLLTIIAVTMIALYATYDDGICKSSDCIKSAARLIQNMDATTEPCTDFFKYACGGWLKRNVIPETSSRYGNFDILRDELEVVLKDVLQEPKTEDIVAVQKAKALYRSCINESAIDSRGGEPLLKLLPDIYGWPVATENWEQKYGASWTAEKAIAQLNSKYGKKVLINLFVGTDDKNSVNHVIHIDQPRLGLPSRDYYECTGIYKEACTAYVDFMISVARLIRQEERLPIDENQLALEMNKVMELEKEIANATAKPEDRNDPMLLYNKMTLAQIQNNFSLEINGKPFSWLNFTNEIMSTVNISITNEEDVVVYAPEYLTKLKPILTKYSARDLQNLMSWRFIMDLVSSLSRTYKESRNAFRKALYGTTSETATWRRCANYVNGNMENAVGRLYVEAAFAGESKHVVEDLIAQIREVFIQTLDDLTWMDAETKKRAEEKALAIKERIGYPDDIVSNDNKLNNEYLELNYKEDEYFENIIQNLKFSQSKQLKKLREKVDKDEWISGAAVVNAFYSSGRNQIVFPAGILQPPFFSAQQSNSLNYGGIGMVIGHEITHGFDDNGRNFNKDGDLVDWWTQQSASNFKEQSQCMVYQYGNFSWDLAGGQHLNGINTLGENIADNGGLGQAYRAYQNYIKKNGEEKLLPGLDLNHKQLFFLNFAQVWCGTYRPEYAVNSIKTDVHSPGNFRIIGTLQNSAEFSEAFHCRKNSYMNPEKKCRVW

`B1 (enzyme)` gave a kcat/Km of 15000 ± 2000 M⁻¹ s⁻¹ (C[C@H]1[C@H](NC(=O)/C(=N\OC(C)(C)C(=O)O)c2csc(N)n2)C(=O)N1S(=O)(=O)O; steady-state kinetics; pH 7).
The tissue uptake of `CC(C)[C@H](NC(=O)[C@@H]1CCCN1C(=O)[C@H](CCCNC(=N)N)NC(=O)[C@H](CS)NC(=O)[C@H](Cc1c[nH]c2ccccc12)NC(=O)[C@H](CCCNC(=N)N)NC(=O)[C@@H](Cc1ccccc1)NC(=O)[C@H](Cc1c[nH]cn1)NC(=O)[C@H](CCC(=O)O)NC(=O)[C@H](CS)NC(=O)[C@H](CS)NC(=O)[C@H](CCCCN)NC(=O)[C@@H]1CC(=O)N[C@@H](CCCNC(=N)N)C(=O)N[C@@H](C)C(=O)N[C@@H](CC(=O)O)C(=O)N[C@H](Cc2ccc(O)cc2)C(=O)N1)C(N)=O` [technetium-99m labelled] is reported as 0.14 ± 0.03 %ID/g (C57 mice, brain; intravenous, 0.037 MBq, 0.5 h).
`Neuropeptide Y` — result for remaining compound: “decreased” (Neprilysin (MME, Homo sapiens, UniProt P08473); LC-MS; 10 µM, 1 h, pH 7.4, BSA 0.1%, with: neprilysin 10 ng/mL).
The pKa of `rnpA F107W (Bacillus subtilis)` is reported as 5.61 (NMR, measured: His105; 25 °C, 0.50 M NaCl, folded, sulfate-bound, numbering of the source, with: sulfate 20 mM).
`insulin degludec` gave an AUC(0-inf) of 0.112 µM·h (human end-stage renal disease, serum; subcutaneous, 0.4 U/kg, dosed after hemodialysis).
For `GSS(Octanoyl)FLSPEHQRVQQRKESKKPPAKLQPR (ghrelin; Octanoyl = CCCCCCCC(=O)*; sequence looked up)`, “compound share in apical compartment” read 100 ± 1.3% (Calu-3 monolayer, air-liquid interface; peptide; 1 mg/mL apical, 3 h, pH 7.4, 37 °C, with or without HTCC).
`Insulin human` gave a concentration of 258 ± 176 pg/mg tissue (ELISA; rat, brainstem; intranasal, 20 µg per nostril, 15 min).
`B2 (UGT1A9)` gave a Km of 18.2 µM (Oc1ccc(C2CCCC2)cc1; steady-state kinetics; pH 7.4, 37 °C).
For `IscU`, the Vmax was 0.257 min⁻¹ (HscA wild type Escherichia coli; ATPase activity, activator; 50-fold molar excess, pH 7.3, 25 °C, with: ATP 1 mM).
For `epidermal growth factor`, “transport apical to basal” read under 1% (MDCK; transwell transcytosis; concentration not given, 120 min, pH 7.4; baseline: added tracer).
`CCSSC[C@@H](NC(=O)[C@H](CC(=O)O)NC(=O)[C@@H](NC(=O)[C@H](CCC(=O)O)NC(=O)[C@H](CC(=O)O)NC(C)=O)C(C)C)C(=O)N[C@@H](CCCCNC(=O)CCCCCN1C(=CC=CC=CC2=[N+](CC)c3ccc4c(S(=O)(=O)[O-])cc(S(=O)(=O)O)cc4c3C2(C)C)C(C)(C)c2c1ccc1c(S(=O)(=O)O)cc(S(=O)(=O)O)cc21)C(=O)Nc1ccc2nc(C3=N[C@@H](C(=O)NCCCOc4ccc5nc(C#N)ccc5c4)CS3)sc2c1`: “half-life of macrocyclization” under 1 h (Caspase-3 (CASP3, Homo sapiens, UniProt P42574); substrate, HPLC; concentration not given, pH 7.4, 37 °C).
The pKB of `B3 (erenumab)` is reported as 5.84 (CALCR/RAMP1 on cells (Homo sapiens); cAMP production, antagonist, Schild analysis; antibody, HEK293S; with: amylin).

A few entries again:
The tissue uptake of `CC(C)[C@H](NC(=O)[C@@H]1CCCN1C(=O)[C@H](CCCNC(=N)N)NC(=O)[C@H](CS)NC(=O)[C@H](Cc1c[nH]c2ccccc12)NC(=O)[C@H](CCCNC(=N)N)NC(=O)[C@@H](Cc1ccccc1)NC(=O)[C@H](Cc1c[nH]cn1)NC(=O)[C@H](CCC(=O)O)NC(=O)[C@H](CS)NC(=O)[C@H](CS)NC(=O)[C@H](CCCCN)NC(=O)[C@@H]1CC(=O)N[C@@H](CCCNC(=N)N)C(=O)N[C@@H](C)C(=O)N[C@@H](CC(=O)O)C(=O)N[C@H](Cc2ccc(O)cc2)C(=O)N1)C(N)=O` [technetium-99m labelled] is reported as 0.14 ± 0.03 %ID/g (C57 mice, brain; intravenous, 0.037 MBq, 0.5 h).
